Published values of several laboratories.
Every numbered part comes from another study and shows a few of its results, in no order. Changes are numbered by the printed parent chain.
UniProt Q9ZSY8, sequence (whole entry, looked up): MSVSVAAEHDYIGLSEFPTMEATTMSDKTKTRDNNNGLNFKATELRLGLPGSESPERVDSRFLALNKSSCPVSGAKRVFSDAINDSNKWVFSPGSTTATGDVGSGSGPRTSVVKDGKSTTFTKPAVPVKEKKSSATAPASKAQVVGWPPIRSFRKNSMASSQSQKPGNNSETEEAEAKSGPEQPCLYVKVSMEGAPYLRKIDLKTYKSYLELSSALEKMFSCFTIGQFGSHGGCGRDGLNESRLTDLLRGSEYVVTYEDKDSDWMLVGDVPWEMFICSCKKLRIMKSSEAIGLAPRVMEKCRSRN
UniProt Q9FX25, sequence (whole entry, looked up): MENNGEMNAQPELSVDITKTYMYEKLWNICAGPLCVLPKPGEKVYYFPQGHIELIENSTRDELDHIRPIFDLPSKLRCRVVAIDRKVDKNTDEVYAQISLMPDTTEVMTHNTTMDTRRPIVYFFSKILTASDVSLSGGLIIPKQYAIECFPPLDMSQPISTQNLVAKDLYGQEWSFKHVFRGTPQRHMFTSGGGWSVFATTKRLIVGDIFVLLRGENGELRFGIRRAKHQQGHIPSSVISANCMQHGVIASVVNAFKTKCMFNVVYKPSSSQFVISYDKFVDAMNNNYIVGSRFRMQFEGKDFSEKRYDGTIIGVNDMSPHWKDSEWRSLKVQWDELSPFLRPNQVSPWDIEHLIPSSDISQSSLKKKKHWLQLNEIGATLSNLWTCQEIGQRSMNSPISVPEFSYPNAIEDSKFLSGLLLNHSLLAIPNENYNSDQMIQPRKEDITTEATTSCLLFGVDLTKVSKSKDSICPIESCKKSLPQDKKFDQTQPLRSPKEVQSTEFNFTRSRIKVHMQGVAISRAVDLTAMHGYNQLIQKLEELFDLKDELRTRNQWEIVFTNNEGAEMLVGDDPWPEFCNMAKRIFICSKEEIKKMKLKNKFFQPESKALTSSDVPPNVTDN
UniProt O23661, sequence (whole entry, looked up): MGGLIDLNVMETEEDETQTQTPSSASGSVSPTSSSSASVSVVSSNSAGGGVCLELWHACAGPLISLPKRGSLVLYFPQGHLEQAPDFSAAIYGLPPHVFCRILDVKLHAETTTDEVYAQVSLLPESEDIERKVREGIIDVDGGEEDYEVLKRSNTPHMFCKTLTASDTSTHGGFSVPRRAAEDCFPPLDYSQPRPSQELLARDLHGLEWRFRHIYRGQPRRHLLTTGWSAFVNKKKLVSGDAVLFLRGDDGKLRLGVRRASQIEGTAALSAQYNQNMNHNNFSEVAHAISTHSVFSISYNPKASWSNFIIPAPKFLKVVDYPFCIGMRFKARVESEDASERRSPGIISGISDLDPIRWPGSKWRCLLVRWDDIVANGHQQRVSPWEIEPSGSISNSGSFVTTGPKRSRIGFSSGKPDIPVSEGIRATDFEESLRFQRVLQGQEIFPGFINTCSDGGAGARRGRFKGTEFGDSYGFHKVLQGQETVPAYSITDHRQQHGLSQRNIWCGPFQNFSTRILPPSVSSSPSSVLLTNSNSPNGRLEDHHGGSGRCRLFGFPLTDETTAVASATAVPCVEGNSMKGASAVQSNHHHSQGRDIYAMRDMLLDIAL
UniProt Q8LAL2, sequence (whole entry, looked up): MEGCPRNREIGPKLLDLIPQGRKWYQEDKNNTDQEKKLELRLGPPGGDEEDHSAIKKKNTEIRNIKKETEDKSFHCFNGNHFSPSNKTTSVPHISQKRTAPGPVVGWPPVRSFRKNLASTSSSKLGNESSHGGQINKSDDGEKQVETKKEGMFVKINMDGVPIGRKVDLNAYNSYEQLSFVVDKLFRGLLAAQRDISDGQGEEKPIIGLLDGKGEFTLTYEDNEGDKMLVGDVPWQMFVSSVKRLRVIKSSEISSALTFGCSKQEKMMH

Block 1 — technique: protein-binding microarray; molecule type: double-stranded DNA, one strand shown; sample: in vitro; tested at: 2540 nM top; notes: 60-bp whole probe; added: salmon DNA 0.4 mg/ml; reference: random background probes; direction: higher = stronger binding; all sequences stand within: GCCTAGCAC … GTCTTGATTCGCTTGACGCTGCTG
Target: Interferon regulatory factor 3, full length, phosphomimetic (IRF3, Homo sapiens, UniProt Q14653, residues 1-427, S386D/S396D/S398D/S402D/T404D/S405D)
Residues (chain): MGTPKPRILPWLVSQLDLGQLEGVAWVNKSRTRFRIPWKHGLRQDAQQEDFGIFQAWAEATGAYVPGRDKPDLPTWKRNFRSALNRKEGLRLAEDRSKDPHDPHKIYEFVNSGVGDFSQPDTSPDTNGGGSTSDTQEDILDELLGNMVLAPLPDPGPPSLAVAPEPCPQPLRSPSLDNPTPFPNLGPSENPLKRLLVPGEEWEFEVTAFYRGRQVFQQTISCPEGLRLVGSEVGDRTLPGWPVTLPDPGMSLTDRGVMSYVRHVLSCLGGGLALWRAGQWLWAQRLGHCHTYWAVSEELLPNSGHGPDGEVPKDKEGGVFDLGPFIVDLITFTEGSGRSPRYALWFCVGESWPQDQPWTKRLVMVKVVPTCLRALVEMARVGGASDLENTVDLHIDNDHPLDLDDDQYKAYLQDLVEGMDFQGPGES
Sequence | fitted relative affinity [z-score]
GACGAAATGGGGTATCGAGACGTGCTA | -0.231
TCCCTTTCAGTTTTCCTCTGGTGCTAG | 4.92
AGTTTTTCATTTTTTTTCATGTGCTAG | 2.06
TTAGGTTTCGACTTCCGGTTAGTGCTA | 3.35
GACGGACGGGGTCTCGGGACGTGCTAG | -1.02
GGCGGTCTCGGTTTCGGGACGTGCTAG | 3.52
GGCGATTTCAGTTCCGAGACGTGCTAG | 2.95
GACGAACTGCGTATCGAGACGTGCTAG | 0.0315
TTTGCTTTCATTTATTTACTGTGCTAG | 2.07
TTAGGTCTCCTTATCCTATAGTGCTAG | 2.97
GACGGTTTCGGGTATCGGGCCGTGCTA | 4.14
GACGGTTTCGGTTTCGGGTCGTGCTAG | 11.2
GACGATTTCGGGTCTGGAGACGTGCTA | 2.44
GAAGATTTCGATTACAAAAAGTGCTAG | 2.73
TTAGGTATCCTACTGCTTAAGTGCTAG | 2.72
TTAGGTTTTGGTTCCGGTTAGTGCTAG | 5.34
TTTCCTCTGTCATTTTCTCTGTGCTAG | 3.37
TTAGGTCTCGGACTGGGTTGGTGCTAG | -0.481
CTCTTTTTGCTTTCTTTTATGTGCTAG | 2.63
TTAGGACTGCTACTGCCTTAGTGCTAG | -0.738
TTCGGTATCGGTTTCGGTTAGTGCTAG | 8.4

Block 2 — technique: DHFR PCA, deep sequencing; sample: yeast; added: (+)-ABA 0.39 µM; reference: wild-type fitted maximum; direction: higher = stronger binding
Target: ABI1, truncated, D143A, DHFR fusion (Arabidopsis thaliana)
Notes: methotrexate growth selection, single substitutions
Starting sequence: PYL1, truncated, DHFR fusion (Arabidopsis thaliana); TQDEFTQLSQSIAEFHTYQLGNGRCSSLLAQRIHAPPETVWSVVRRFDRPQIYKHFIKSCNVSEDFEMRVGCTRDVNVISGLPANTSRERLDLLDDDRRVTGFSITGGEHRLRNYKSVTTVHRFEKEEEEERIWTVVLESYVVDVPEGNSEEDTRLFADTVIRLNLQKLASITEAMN; partner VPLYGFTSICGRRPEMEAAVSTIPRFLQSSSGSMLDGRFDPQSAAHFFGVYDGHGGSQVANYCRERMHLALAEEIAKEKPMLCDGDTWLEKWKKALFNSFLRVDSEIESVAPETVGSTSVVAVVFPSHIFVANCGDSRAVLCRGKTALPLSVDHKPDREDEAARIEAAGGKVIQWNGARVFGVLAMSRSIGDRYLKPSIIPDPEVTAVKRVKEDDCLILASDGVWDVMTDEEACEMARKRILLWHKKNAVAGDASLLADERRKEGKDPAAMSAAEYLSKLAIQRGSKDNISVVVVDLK
Variant | relative binding score
G21L | 15.6%
V44R | -0.786%
R163H | 3.82%
D3Q | 48.4%
F103C | -8.63%
D144P | -12.6%
N114E | -12.7%
R98M | 16.2%
F5L | 58.4%
A13T | 37%
E147K | 24.3%
Q7C | 37.1%
R74D | -9.86%
G102W | 13.9%
I105V | 30.3%
F56L | 15.5%
N165S | 8.37%
E151A | 62%
H34L | 43.3%
R111F | 6.91%
M176F | -6.08%
T101K | -1.78%

Block 3 — technique: RNA Bind-n-Seq; molecule type: RNA; sample: in vitro; tested at: 365 nM; reference: no-protein control; direction: higher = stronger binding
Target: RNA binding protein fox-1 homolog 2, RRM domain, GST-SBP tag (RBFOX2, Homo sapiens, UniProt O43251-10, residues 100-194)
Notes: natural RNA segment, single round, ends assumed
All sequences stand within: GGGAGUUCUACAGUCCGACGAUC … UGGAAUUCUCGGGUGCCAA
Residues (chain): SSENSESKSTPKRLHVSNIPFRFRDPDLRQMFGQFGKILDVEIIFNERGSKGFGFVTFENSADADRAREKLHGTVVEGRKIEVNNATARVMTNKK
Sequence | RBNS enrichment (R)
UCCAGCCAUGUCUGACAGUGAGCAUGCUUUGGUGUGGUCUUCACUGCUUUUGGUUUUGCUUCUGAUCUUGUGUUCUAAGGUACUCAGUGAAUCCUGGAUUCUGAGUAAGU | 0.624
UGUGUUGGAGACACUUCUGAAGGGCAAGUGAACAGACAUACUGUGAAGUGGCUCAACAGGAGGAGCCUGAGUUGUGGGGUCUAUGGAUGGCAACCAGCUGAUUCUGUACA | 0.894
UGUAUAAAAGAGCCUUAAAUGGAACAUUGUUUUGAGAUCAAACUCCCUACCCUCACAAAAGUGGCCACGUUGCAAUAAAAAUUGUGGCAGAUUACAGAAUGUUGCCUUGU | 1.01
GGAUUACAGGCAUGAGCCACCGUGGCCGGCCAAGAUUUUAAGCCUUCUGAGCCUUGAAAUUGAGGAGGUUAAAAGGAAGAGCCUUAAGAUUUUGAUUUAUGUCAAAUCCU | 0.325
UCCAAACAUUGGAAACUUUCAGAUCAUAAGGCAGAAUUUAGUAAUUUUGUGCUUCUGUUAAUGUCUAGCAUUUUAAACAUAGGAUAACAUUGUUUUGGACACUGGAAUAA | 0.785
GCUAAAUUGUGACCUGGGGAAGGACUUUGCUUUAGUCGGUGAUGUUCGUACUUGGUGACAAAUUGAGACUGCUGCUGGAUUCAGAUUGACAAGAUUUUCUUGGAUUUUUU | 0.276
GUUUUUGGGGUCCAUGGCCAAGUGGAGUUCCCCCAGAGGGGGAGGUGGGGUAAGUGCCUCCAGGAAGGCAGGCAGCCUGCCUUAGACUUGCAGCCCGGCUGUGGGAAUGA | 0.83
AAUGCUGCGCUCUUUGUGUUUUUCCAUCAUUAGUGCAGUUGGAAUGAAUGUGUAUAGGUCAGAGGUCUUCGUGUUCACAUUUUAAAAUUAGGUAAAUGACCUCAUCUUUC | 0.601
UAUGCUCCAAGGAUCACCUCAGUUCUCUCUCAGAUUCUGGAAACAGAUGAAAUGCUCUUUGCAUUGUCUGAACCCUCUCUAAUUCUAUCAUGAUAACGCUACUGUGACGC | 0.429
GGGUGAGGACACUAACAGUGUAACUGGUGACCACGUGAACAGUUCCAUGAAUUAAAUGUUUCCUGUGUUAAUCAGUAUUCUUAAAUUAAAAGAAAAUGUUUAUAAUGGAA | 0.522
GGCUGCACUAAAAUUCACUUAGGGUCGAGCAUCCUGUUUGCUGAUAAAUAUUAAGGAGAAUUCAUGACUCUUGACAGCUUUUCUCUCUUCACUCCCCAAGUCAAGGGGAG | 0.471
UACCACGUUAGGAGGGUGAGCAGCCCUCUGCUAUGUGCCCAGGACCCUGCCUGGACAUUGCAUUUCCCCAUUUAUGGUGCUCCGUAUUCUGGCAUUAUGCAGCAGCCUCA | 0.405

Block 4 — technique: two-hybrid; reference: out of 4 tests; direction: higher = firmer interaction
Partner: ARF18 482-602 (Arabidopsis thaliana, UniProt Q9C5W9)
Construct (chain): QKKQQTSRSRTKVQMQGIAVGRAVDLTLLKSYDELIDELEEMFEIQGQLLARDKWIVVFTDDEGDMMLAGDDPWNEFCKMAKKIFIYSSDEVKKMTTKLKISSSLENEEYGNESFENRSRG
Substance | positive tests
IAA26 (Arabidopsis thaliana, UniProt Q8LAL2) | 0
ETT (Arabidopsis thaliana, UniProt O23661) | 0
ARF13 (Arabidopsis thaliana, UniProt Q9FX25) | 0
IAA27 (Arabidopsis thaliana, UniProt Q9ZSY8) | 1

Block 5 — technique: Spec-seq; molecule type: double-stranded DNA, one strand shown; sample: in vitro; tested at: not given; notes: whole probe, mean of replicates; reference: not given; direction: lower = stronger binding; all sequences stand within: GAGTCGTCTCGTCAGCAC … CCGTAGAGCACTCAGGTC
Target: POU, POU domain (Salpingoeca helianthica)
Target sequence (chain): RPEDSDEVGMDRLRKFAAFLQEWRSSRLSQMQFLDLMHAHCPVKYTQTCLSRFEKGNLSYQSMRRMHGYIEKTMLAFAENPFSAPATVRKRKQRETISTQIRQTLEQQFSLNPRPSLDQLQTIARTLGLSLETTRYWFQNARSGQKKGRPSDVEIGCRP
Sequence | relative binding energy
ATGCGGCC | 1.56 ln ratio
ATAACAAT | -0.0582 ln ratio
GGCGTAAT | 0.575 ln ratio
ATATGTAT | 0.808 ln ratio
ATTCCAAT | 1.01 ln ratio
CTCTTAAT | 0.187 ln ratio
ATTATGAT | 0.476 ln ratio
ATGCATGC | 1.12 ln ratio
ATGCCTAG | 1.37 ln ratio
ATCAATAT | 0.648 ln ratio
GATGTAAT | 0.483 ln ratio
ATGCGCCA | 1.12 ln ratio
ATGTATAT | 0.896 ln ratio
GAATTAAT | -0.952 ln ratio
ATCAGTAT | 1.02 ln ratio
ATGCACAG | 1.41 ln ratio
TTCCTAAT | 0.683 ln ratio
GTGTTAAT | -0.292 ln ratio
ATGCTATA | 1.2 ln ratio
TTCGTAAT | 0.242 ln ratio
TAGATAAT | 0.124 ln ratio
ATGCAAGG | 1.36 ln ratio

Block 6 — technique: protein binding microarray; molecule type: double-stranded DNA, one strand shown; sample: in vitro; tested at: not given; reference: not given; direction: higher = stronger binding
Target: Histone acetyltransferase KAT6A, winged helix 1, GST fusion (KAT6A, Homo sapiens, UniProt Q92794, residues 1-85)
Notes: 8-mer, flanks averaged, mean of 2 arrays, mostly near background
Construct (chain): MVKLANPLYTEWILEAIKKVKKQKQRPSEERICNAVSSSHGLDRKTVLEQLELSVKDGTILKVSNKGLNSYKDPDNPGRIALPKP
Sequence | E-score
ACATCTTG | -0.222
AAGTTACG | 0.0314
ACATGACG | 0.12
ATTCAATC | -0.145
GAACACAA | -0.283
GCTACTAC | 0.114
CCGCATGC | 0.233
ACACCCTG | -0.318
CCGCAAGA | 0.101
ACATCAGT | -0.183
TAGGAGCA | -0.242
ATTCATGA | -0.123
TGGCTGAA | -0.228
CTCGGTTC | -0.124
CACATACG | 0.0558
ACCTGTCG | 0.00557
CGTGGAAA | 0.072
CACTGGAA | -0.2
AAACCGTA | 0.119
TGAGGACA | -0.348
CCCTATGA | -0.0747

Block 7 — target: NFIL3, bZIP domain (human); technique: DHFR protein complementation; sample: yeast; reference: wild-type JUN-FOS pair; direction: higher = stronger binding
Notes: single substitutions, most at no-binding floor
Starting sequence: JUN, bZIP domain (human); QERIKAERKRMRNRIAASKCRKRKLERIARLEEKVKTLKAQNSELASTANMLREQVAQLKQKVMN; partner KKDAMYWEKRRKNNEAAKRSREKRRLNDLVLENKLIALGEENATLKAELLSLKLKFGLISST
Variant | binding fitness
A46I | -1.51 natural log
L38P | -1.52 natural log
I28E | -1.42 natural log
A40E | -1.34 natural log
I28W | -1.55 natural log
A40M | -1.35 natural log
V35F | -1.36 natural log
V35W | -1.36 natural log
E33W | -1.39 natural log
V35G | -1.49 natural log
A29H | -1.53 natural log
T37A | -1.3 natural log
A29E | -1.45 natural log
E32I | -1.46 natural log
S43P | -1.48 natural log
L52S | -1.46 natural log
M51F | -1.57 natural log
A49R | -1.41 natural log
A40V | -1.26 natural log
E33N | -1.56 natural log
K34H | -1.35 natural log
V35Y | -1.47 natural log
K39C | -1.45 natural log
K34R | -1.36 natural log
T48Y | -1.59 natural log

Repeated from above (block 7):
Variant | binding fitness
I28W | -1.55 natural log
K34H | -1.35 natural log
V35W | -1.36 natural log
K39C | -1.45 natural log
T48Y | -1.59 natural log
V35G | -1.49 natural log
A40E | -1.34 natural log
A40V | -1.26 natural log
V35Y | -1.47 natural log
L52S | -1.46 natural log
M51F | -1.57 natural log
A49R | -1.41 natural log
E32I | -1.46 natural log
A29E | -1.45 natural log
